# Results gathered from unrelated publications.
# ± marks the error that the study gave.
# lecA: PA-I galactophilic lectin (lecA, Pseudomonas aeruginosa, UniProt Q05097)
# Chain of UniProt P09622 (whole entry, looked up): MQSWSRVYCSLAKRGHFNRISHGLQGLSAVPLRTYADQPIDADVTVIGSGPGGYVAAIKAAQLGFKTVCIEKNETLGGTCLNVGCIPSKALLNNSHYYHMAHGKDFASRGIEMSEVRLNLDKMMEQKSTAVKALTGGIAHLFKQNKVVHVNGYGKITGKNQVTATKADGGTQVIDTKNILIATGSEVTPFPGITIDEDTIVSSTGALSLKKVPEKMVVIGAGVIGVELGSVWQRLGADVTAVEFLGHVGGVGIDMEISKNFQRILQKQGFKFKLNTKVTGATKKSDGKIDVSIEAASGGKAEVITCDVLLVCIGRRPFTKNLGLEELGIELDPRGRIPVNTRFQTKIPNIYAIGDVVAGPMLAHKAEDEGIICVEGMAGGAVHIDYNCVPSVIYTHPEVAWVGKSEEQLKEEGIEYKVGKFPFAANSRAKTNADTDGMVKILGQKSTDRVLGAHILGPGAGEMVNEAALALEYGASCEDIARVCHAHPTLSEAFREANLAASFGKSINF
# Chain of UniProt Q07741 (whole entry, looked up): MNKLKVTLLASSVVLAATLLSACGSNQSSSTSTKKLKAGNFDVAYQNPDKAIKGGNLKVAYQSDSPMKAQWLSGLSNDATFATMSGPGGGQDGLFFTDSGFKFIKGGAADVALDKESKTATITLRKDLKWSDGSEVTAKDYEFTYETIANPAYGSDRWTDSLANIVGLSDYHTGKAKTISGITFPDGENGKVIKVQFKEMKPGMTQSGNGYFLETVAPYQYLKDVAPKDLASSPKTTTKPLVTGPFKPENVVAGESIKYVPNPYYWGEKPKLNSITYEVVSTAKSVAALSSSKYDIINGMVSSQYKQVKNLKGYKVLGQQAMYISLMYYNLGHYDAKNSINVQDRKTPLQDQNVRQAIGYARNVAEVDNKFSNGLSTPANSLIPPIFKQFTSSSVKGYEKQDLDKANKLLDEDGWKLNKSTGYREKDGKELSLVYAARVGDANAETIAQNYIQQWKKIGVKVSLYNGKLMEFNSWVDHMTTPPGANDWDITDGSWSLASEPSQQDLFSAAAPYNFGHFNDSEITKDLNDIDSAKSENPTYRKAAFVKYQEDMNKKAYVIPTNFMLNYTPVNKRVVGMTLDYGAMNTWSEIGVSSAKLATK
# Chain of UniProt Q9NZC7 (whole entry, looked up): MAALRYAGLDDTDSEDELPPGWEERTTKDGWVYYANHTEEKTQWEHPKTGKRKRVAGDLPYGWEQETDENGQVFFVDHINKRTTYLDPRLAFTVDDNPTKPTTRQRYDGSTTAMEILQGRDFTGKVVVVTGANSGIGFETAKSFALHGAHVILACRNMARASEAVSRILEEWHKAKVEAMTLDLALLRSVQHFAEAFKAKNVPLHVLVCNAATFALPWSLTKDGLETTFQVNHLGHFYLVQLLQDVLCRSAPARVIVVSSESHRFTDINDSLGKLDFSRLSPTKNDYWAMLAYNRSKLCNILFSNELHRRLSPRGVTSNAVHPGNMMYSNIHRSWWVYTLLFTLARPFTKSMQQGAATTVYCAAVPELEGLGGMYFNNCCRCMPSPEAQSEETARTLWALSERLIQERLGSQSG
# Chain of UniProt Q9H2X3 (whole entry, looked up): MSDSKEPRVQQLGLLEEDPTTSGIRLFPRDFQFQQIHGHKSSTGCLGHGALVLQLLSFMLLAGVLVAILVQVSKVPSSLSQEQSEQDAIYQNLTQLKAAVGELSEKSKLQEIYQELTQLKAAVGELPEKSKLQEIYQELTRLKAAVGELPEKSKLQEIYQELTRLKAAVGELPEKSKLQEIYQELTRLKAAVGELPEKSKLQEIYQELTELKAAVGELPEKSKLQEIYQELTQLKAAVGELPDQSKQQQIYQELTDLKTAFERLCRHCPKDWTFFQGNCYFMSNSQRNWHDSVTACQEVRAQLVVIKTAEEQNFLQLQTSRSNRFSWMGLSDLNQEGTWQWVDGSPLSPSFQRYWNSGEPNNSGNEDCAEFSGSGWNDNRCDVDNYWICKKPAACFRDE
# Chain of UniProt Q02152 (whole entry, looked up): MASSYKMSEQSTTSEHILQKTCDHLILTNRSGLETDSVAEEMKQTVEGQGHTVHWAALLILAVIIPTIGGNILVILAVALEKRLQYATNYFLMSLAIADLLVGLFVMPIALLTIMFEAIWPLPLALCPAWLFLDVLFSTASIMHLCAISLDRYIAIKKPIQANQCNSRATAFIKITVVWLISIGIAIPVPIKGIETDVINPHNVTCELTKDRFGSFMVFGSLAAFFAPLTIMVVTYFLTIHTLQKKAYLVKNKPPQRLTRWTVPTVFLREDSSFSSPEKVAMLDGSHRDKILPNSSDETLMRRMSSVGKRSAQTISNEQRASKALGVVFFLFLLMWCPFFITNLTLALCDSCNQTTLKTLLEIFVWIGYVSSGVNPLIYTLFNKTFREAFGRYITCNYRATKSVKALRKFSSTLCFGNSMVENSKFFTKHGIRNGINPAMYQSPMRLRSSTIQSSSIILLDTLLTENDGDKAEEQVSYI
# Chain of UniProt Q13451 (whole entry, looked up): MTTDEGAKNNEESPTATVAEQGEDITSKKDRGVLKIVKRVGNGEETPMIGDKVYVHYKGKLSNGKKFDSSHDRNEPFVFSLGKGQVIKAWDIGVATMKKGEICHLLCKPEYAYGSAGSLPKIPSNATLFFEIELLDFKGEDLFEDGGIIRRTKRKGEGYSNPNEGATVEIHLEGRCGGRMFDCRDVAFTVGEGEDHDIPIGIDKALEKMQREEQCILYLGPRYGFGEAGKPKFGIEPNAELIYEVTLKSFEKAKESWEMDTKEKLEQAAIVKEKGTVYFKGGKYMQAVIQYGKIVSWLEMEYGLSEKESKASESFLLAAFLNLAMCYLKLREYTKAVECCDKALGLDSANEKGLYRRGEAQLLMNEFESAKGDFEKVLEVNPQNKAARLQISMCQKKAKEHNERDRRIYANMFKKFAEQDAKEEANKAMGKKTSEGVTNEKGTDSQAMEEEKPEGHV
# Chain of UniProt Q9Y294 (whole entry, looked up): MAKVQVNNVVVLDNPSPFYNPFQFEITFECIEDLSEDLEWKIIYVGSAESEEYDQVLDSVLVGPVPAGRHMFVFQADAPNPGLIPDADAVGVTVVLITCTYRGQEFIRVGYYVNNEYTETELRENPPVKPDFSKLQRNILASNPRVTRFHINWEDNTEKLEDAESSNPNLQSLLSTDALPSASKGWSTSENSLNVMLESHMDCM
# Chain of UniProt P63104 (whole entry, looked up): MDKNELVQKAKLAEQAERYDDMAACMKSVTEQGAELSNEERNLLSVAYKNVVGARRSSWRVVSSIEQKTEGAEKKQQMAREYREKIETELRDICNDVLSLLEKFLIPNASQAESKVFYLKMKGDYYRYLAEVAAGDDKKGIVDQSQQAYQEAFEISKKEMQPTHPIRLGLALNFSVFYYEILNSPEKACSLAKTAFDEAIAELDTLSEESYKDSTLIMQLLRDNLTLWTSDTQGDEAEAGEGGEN
# Chain of UniProt Q8TDX7 (whole entry, looked up): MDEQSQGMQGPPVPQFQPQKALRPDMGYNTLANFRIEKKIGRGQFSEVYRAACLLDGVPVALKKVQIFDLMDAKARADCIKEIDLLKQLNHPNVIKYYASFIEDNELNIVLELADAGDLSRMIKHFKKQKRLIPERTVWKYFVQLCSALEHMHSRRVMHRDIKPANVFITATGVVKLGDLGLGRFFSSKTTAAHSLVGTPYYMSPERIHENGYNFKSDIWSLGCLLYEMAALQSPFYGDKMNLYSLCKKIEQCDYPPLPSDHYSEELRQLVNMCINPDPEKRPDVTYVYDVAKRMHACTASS
SMILES,target,test,test system,conditions,Kd [nM]
Cc1cc(S(=O)(=O)N(C)CC(=O)Nc2ccn(C)c(=O)c2)c2[nH]ncc2c1,"DLD (Homo sapiens, UniProt P09622)","binding, ITC",,,592
NCc1cn([C@@H]2[C@@H](OCCn3cc(COCCOCCOCCn4cc(-c5cc(OCCOCCO)c(C#Cc6cc(OCCOCCO)c(C#Cc7cc(OCCOCCO)c(-c8cn(CCOCCOCCOCc9cn(CCO[C@H]%10O[C@H](CO)[C@@H](O)[C@H](O)[C@@H]%10n%10cc(CN)nn%10)nn9)nn8)cc7OCCOCCO)cc6OCCOCCO)cc5OCCOCCO)nn4)nn3)O[C@H](CO)[C@@H](O)[C@@H]2O)nn1,"C-type lectin domain family 4 member M, extracellular domain (CLEC4M, Homo sapiens, UniProt Q9H2X3)",binding,,,33000 ± 11000
CC(C)C[C@@H]1NC(=O)[C@H](C)NC(=O)[C@H](C)NC(=O)[C@H](CC(C)C)NC(=O)[C@H](CCC(=O)O)NC(=O)[C@H](C)NC(=O)[C@H](CCC(=O)O)NC(=O)[C@H](CC(C)C)NC(=O)[C@H](C)NC(=O)[C@H](C)NC(=O)[C@H](CC(C)C)NC(=O)[C@H](CCC(=O)O)NC(=O)[C@H](C)NC(=O)[C@H](C)NC(=O)[C@@H](N)CSSC[C@@H](C(N)=O)NC(=O)[C@H](C)NC(=O)[C@H](C)NC(=O)[C@H](CCCCN)NC(=O)[C@H](CC(C)C)NC(=O)[C@H](C)NC(=O)[C@H](C)NC(=O)[C@H](CC(C)C)NC(=O)[C@H](CCCCN)NC(=O)[C@H](C)NC(=O)[C@H](CCCCN)NC(=O)[C@H](CC(C)C)NC(=O)[C@H](C)NC(=O)[C@H](C)NC(=O)[C@H](CC(C)C)NC(=O)[C@H](CCCCN)NC(=O)CNC(=O)[C@H](CCCNC(=N)N)NC(=O)[C@H](Cc2ccccc2)NC(=O)[C@H](CC(C)C)NC(=O)[C@H](CCC(=O)O)NC(=O)[C@H](C(C)C)NC(=O)CNC(=O)[C@H](Cc2ccccc2)NC(=O)[C@H](CC(N)=O)NC(=O)[C@H](C(C)C)NC(=O)CNC(=O)[C@H](CCC(=O)O)NC1=O,"Albumin (Mus musculus, UniProt P07724)","binding, SPR",,,560 ± 160
CSCC[C@H](NC(=O)[C@H](CCCNC(=N)N)NC(=O)[C@H](CO)NC(=O)[C@@H](NC(=O)[C@H](CC(=O)O)NC(=O)[C@H](CC(=O)O)NC(=O)CCCCCNC(=O)c1ccc2c(c1)C(=O)OC21c2ccc(O)cc2Oc2cc(O)ccc21)[C@@H](C)O)C(=O)N[C@@H](CCC(=O)O)C(=O)N[C@@H](CCCCN)C(=O)N[C@H](C(=O)N[C@@H](CC(=O)O)C(=O)O)C(C)C,"FKBP5 (Homo sapiens, UniProt Q13451)","binding, FP",,pH 7.4,> 25000
CC(C)C[C@H](NC(=O)[C@@H](NC(=O)[C@@H](NC(=O)CNC(=O)CNC(=O)CNC(=O)CNC(=O)CNC(=O)[C@H](CC(N)=O)NC(=O)[C@H](CCCNC(=N)N)NC(=O)[C@H](Cc1c[nH]cn1)NC(=O)[C@H](CCCNC(=N)N)NC(=O)[C@H](Cc1ccc(O)cc1)NC(=O)[C@@H]1CCCN1C(=O)[C@@H]1CCCN1C(=O)[C@@H]1CCCN1C(=O)[C@@H]1CCCN1C(=O)[C@H](CC(C)C)NC(=O)[C@@H](NC(=O)[C@@H](NC(=O)CN)[C@@H](C)O)C(C)C)[C@@H](C)O)C(C)C)C(=O)N1CCC[C@H]1C(=O)N1CCC[C@H]1C(=O)N1CCC[C@H]1C(=O)N1CCC[C@H]1C(=O)N[C@@H](Cc1ccc(O)cc1)C(=O)N[C@@H](CCCNC(=N)N)C(=O)N[C@@H](Cc1c[nH]cn1)C(=O)N[C@@H](CCCNC(=N)N)C(=O)N[C@@H](CC(N)=O)C(=O)O,"WW domain-containing oxidoreductase, WW1-WW2 tandem domains (WWOX, Homo sapiens, UniProt Q9NZC7)",ITC,tandem WW1-WW2 domain,"pH 7.8, 20 °C, some values lower limits only",3100 ± 300
N=C(N)NCCC[C@H](NC(=O)[C@H](Cc1ccccc1)NC(=O)[C@@H]1CCCN1C(=O)[C@H](CO)NC(=O)[C@H](Cc1ccccc1)NC(=O)CNC(=O)[C@@H]1CCCN1C(=O)[C@@H]1CCCN1C(=O)[C@@H](N)CCCNC(=N)N)C(=O)N[C@@H](CCCCNS(=O)(=O)c1ccc(C2=c3cc4c5c(c3Oc3c2cc2c6c3CCCN6CCC2)CCC[N+]=5CCC4)c(S(=O)(=O)[O-])c1)C(=O)O,"Oligopeptide-binding protein OppA (oppA, Lactococcus lactis subsp. lactis, UniProt Q07741)","binding, fluorescence anisotropy",,"pH 5, 45 °C, together with: dye-labelled peptide",31000 ± 1000
CC[C@H](C)[C@H](NC(=O)[C@H](CCCNC(=N)N)NC(=O)[C@H](CCCNC(=N)N)NC(=O)[C@H](C)NC(=O)[C@H](CC(C)C)NC(=O)[C@H](CCCNC(=N)N)NC(=O)[C@H](C)NC(=O)[C@H](Cc1c[nH]c2ccccc12)NC(=O)[C@H](CCCCN)NC(=O)[C@H](CCC(=O)O)NC(C)=O)C(=O)N[C@@H](C)C(N)=O,"Histone chaperone ASF1A (Homo sapiens, UniProt Q9Y294)","binding, ITC",,pH 7.5,270
CCCCCCCC(=O)N[C@@H](CCCCNS(=O)(=O)c1cccc2c(N(C)C)cccc12)C(=O)N[C@H](C(=O)N[C@@H](CCN)C(=O)N[C@H]1CCNC(=O)[C@H]([C@@H](C)O)NC(=O)[C@H](CCN)NC(=O)[C@H](CCN)NC(=O)[C@H](CC(C)C)NC(=O)[C@@H](Cc2ccccc2)NC(=O)[C@H](CCN)NC1=O)[C@@H](C)O,lipopolysaccharide,"binding, fluorescence titration",Escherichia coli,pH 7.0,500 ± 100
CC[C@H](C)[C@H](NC(=O)[C@H](CCCNC(=N)N)NC(=O)[C@H](CCCCN)NC(=O)[C@@H](NC(=O)[C@H](C)NC(=O)[C@H](CCCNC(=N)N)NC(=O)[C@H](CCC(N)=O)NC(=O)[C@H](CO)NC(=O)[C@H](CCCCN)NC(=O)[C@H](CC(N)=O)NC(=O)[C@@H](N)CCCNC(=N)N)[C@@H](C)O)C(=O)N[C@@H](CO)C(=O)N[C@@H](Cc1c[nH]cn1)C(=O)N[C@@H](CCSC)C(=O)N1CCC[C@H]1C(=O)N[C@@H](CO)C(=O)N[C@@H](CCCNC(=N)N)C(=O)N1CCC[C@H]1C(=O)N[C@@H](CCC(=O)O)C(=O)N[C@@H](CC(C)C)C(=O)N[C@@H](CO)C(=O)N[C@@H](C)C(=O)N[C@H](C(=O)N[C@@H](C)C(=O)N[C@H](C(=O)N[C@@H](CC(=O)O)C(=O)N[C@@H](CC(C)C)C(=O)N[C@@H](CCCNC(=N)N)C(=O)N[C@@H](CCCCN)C(=O)N[C@@H](CC(=O)O)C(=O)N[C@@H](CCCCN)C(=O)N[C@@H](C)C(=O)N[C@@H](CCCCN)C(=O)N[C@@H](COP(=O)(O)O)C(=O)N[C@@H](CS)C(=O)OC)[C@@H](C)O)C(C)C,"YWHAZ (Homo sapiens, UniProt P63104)","binding, stopped-flow fluorescence polarization",,,1490
CC(C)C[C@H](NC(=O)[C@@H]1CCCN1C(=O)[C@H](CCCCN)NC(=O)C[C@@H]1O[C@@H](C)[C@@H](O)[C@@H](O)[C@@H]1O)C(=O)N[C@@H](CCCCNC(=O)[C@H](CC(C)C)NC(=O)[C@@H]1CCCN1C(=O)[C@H](CCCCN)NC(=O)c1ccc(O[C@@H]2O[C@H](CO)[C@H](O)[C@H](O)[C@H]2O)cc1)C(=O)N[C@@H](Cc1ccccc1)C(=O)N[C@@H](CS)C(N)=O,lecA,"binding, ITC",,pH 7.5,7800
CC(=O)N[C@H]1CCCCn2cc3ccccc3c2SC[C@@H](C(N)=O)NC(=O)[C@H](Cc2ccccc2)NC(=O)[C@H](CO)NC(=O)[C@H](CO)NC(=O)[C@H](CC(C)C)NC(=O)[C@@H]2CCCN2C(=O)[C@H](Cc2ccccc2)NC(=O)[C@H]([C@@H](C)O)NC1=O,"NEK7 (Homo sapiens, UniProt Q8TDX7)","binding, BLI",,,2100
CC[C@H](C)[C@H](NC(=O)[C@@H](NC(=O)[C@H](Cc1c[nH]c2ccccc12)NC(=O)[C@H](CCC(=O)O)NC(=O)[C@H](CO)NC(=S)Nc1ccc2c(c1)C(=O)OC21c2ccc(O)cc2Oc2cc(O)ccc21)C(C)C)C(=O)N[C@H](C(=O)N[C@H](C(=O)N1CCC[C@H]1C(=O)N[C@@H](Cc1ccccc1)C(=O)N[C@@H](CC(C)C)C(=O)N[C@H](C(=O)N[C@@H](C)C(=O)N[C@@H](CC(C)C)C(=O)O)[C@@H](C)O)[C@@H](C)CC)C(C)C,"Rgg transcriptional regulator (Streptococcus pneumoniae, UniProt A0A0E7KI02)","binder, fluorescence polarization",,"20 min, pH 7.4, 20 °C, fluorescein-labelled peptide",3300 ± 200
COc1ccc(/C=C/C(=O)c2ccc(OCCSc3nnc(-c4ccccc4)c(-c4ccccc4)n3)cc2)c(OC)c1,"CP (Tobacco mosaic virus, UniProt P69687)","binding, MST",,,81700
NCCCC[C@H](NC(=O)[C@H](CC(N)=O)NC(=O)[C@H](CCCCNC(=O)[C@H](Cc1ccc(B(O)O)cc1)NC(=O)[C@H](Cc1ccc(O)cc1)NC(=O)[C@@H](N)Cc1ccc(B(O)O)cc1)NC(=O)[C@H](Cc1ccc(B(O)O)cc1)NC(=O)[C@H](Cc1ccc(O)cc1)NC(=O)[C@@H](N)Cc1ccc(B(O)O)cc1)C(=O)N[C@@H](CO)C(=O)N[C@@H](Cc1ccc(O)cc1)C(N)=O,HIV-1 TAR RNA,"binding, dot blot",,,5200 ± 1500
CC[C@H](C)[C@H](NC(=O)[C@H](Cc1c[nH]cn1)NC(=O)[C@H](CCCCNC(=O)[C@@H](NC(=O)[C@H](CCCCN)NC(=O)[C@H](Cc1ccccc1)NC(=O)[C@H](CCCCNC(=O)[C@H](CC(C)C)NC(=O)[C@@H]1CCCN1C(=O)[C@H](CCCCN)NC(=O)CCS[C@@H]1O[C@H](CO)[C@H](O)[C@H](O)[C@H]1O)NC(=O)[C@H](CC(C)C)NC(=O)[C@@H]1CCCN1C(=O)[C@H](CCCCN)NC(=O)CCS[C@@H]1O[C@H](CO)[C@H](O)[C@H](O)[C@H]1O)[C@@H](C)CC)NC(=O)[C@@H](NC(=O)[C@H](CCCCN)NC(=O)[C@H](Cc1ccccc1)NC(=O)[C@H](CCCCNC(=O)[C@H](CC(C)C)NC(=O)[C@@H]1CCCN1C(=O)[C@H](CCCCN)NC(=O)CCS[C@@H]1O[C@H](CO)[C@H](O)[C@H](O)[C@H]1O)NC(=O)[C@H](CC(C)C)NC(=O)[C@@H]1CCCN1C(=O)[C@H](CCCCN)NC(=O)CCS[C@@H]1O[C@H](CO)[C@H](O)[C@H](O)[C@H]1O)[C@@H](C)CC)C(N)=O,lecA,isothermal titration calorimetry,,"pH 7.5, 25 °C, together with: 25 mM CaCl2",400 ± 100
Cc1cc(-c2ccc3ccccc3c2)nnc1NCCN1CCN(C)CC1,"5-hydroxytryptamine receptor 2B (Mus musculus, UniProt Q02152)","β-arrestin-1 recruitment, antagonist, Schild analysis",mouse,together with: serotonin,73
Nc1ncnc2c1ncn2[C@@H]1O[C@H](COP(=O)(O)OP(=O)(O)OP(=O)(O)O)[C@@H](O)[C@H]1O,"dnaA (Escherichia coli, UniProt P03004, A184V)","binding, radiometric",,,2970

# Some of these lines once more:
SMILES,target,test,test system,conditions,Kd [nM]
CC(=O)N[C@H]1CCCCn2cc3ccccc3c2SC[C@@H](C(N)=O)NC(=O)[C@H](Cc2ccccc2)NC(=O)[C@H](CO)NC(=O)[C@H](CO)NC(=O)[C@H](CC(C)C)NC(=O)[C@@H]2CCCN2C(=O)[C@H](Cc2ccccc2)NC(=O)[C@H]([C@@H](C)O)NC1=O,"NEK7 (Homo sapiens, UniProt Q8TDX7)","binding, BLI",,,2100
CC[C@H](C)[C@H](NC(=O)[C@H](CCCNC(=N)N)NC(=O)[C@H](CCCNC(=N)N)NC(=O)[C@H](C)NC(=O)[C@H](CC(C)C)NC(=O)[C@H](CCCNC(=N)N)NC(=O)[C@H](C)NC(=O)[C@H](Cc1c[nH]c2ccccc12)NC(=O)[C@H](CCCCN)NC(=O)[C@H](CCC(=O)O)NC(C)=O)C(=O)N[C@@H](C)C(N)=O,"Histone chaperone ASF1A (Homo sapiens, UniProt Q9Y294)","binding, ITC",,pH 7.5,270
